# Measured values of several laboratories.
# Protein sequences, listed by entry. Tags and fused reporters are not part of them. Residues count along the entry.
# UniProt P22303, whole entry, looked up: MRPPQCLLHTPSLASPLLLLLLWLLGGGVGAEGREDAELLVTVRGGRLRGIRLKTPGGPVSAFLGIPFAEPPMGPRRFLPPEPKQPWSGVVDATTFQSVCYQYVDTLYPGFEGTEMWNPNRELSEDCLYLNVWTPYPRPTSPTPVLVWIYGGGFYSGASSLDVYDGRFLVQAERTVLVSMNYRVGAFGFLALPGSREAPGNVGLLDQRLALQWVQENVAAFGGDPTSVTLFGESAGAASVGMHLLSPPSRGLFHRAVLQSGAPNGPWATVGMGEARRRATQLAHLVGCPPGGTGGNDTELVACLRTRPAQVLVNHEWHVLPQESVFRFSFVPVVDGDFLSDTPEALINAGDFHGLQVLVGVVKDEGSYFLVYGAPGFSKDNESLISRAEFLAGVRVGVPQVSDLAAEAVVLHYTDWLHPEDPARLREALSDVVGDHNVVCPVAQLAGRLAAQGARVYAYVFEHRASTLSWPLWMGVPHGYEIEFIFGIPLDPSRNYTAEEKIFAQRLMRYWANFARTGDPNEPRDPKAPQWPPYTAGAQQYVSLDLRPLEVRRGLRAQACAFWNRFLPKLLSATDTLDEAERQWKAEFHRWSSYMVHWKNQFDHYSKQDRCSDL
# UniProt P9WGR1, whole entry: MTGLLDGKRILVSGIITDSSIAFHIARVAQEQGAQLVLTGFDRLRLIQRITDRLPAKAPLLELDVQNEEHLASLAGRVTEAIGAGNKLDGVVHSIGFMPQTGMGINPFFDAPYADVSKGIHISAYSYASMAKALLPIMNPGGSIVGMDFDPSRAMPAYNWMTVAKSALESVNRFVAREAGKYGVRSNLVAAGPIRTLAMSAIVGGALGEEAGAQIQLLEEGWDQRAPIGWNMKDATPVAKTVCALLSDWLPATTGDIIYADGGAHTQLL
# UniProt P45983, 1-384 isoform 3: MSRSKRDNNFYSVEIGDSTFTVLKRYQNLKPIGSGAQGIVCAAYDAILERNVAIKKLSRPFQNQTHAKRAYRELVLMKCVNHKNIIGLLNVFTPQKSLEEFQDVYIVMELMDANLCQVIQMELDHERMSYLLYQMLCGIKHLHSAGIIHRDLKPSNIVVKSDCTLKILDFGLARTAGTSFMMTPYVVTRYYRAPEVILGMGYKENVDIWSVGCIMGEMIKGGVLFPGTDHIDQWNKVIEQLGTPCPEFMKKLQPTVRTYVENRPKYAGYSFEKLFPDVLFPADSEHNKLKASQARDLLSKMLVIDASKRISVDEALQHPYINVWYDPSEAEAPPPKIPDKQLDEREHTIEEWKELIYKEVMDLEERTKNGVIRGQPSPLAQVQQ
# UniProt P06730, whole entry: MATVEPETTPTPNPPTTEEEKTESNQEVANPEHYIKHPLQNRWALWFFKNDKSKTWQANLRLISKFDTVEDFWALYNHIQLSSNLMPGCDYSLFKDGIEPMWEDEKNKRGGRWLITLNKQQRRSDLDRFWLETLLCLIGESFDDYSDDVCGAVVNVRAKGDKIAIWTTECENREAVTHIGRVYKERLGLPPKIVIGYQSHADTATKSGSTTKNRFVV
# UniProt O42275, whole entry, looked up: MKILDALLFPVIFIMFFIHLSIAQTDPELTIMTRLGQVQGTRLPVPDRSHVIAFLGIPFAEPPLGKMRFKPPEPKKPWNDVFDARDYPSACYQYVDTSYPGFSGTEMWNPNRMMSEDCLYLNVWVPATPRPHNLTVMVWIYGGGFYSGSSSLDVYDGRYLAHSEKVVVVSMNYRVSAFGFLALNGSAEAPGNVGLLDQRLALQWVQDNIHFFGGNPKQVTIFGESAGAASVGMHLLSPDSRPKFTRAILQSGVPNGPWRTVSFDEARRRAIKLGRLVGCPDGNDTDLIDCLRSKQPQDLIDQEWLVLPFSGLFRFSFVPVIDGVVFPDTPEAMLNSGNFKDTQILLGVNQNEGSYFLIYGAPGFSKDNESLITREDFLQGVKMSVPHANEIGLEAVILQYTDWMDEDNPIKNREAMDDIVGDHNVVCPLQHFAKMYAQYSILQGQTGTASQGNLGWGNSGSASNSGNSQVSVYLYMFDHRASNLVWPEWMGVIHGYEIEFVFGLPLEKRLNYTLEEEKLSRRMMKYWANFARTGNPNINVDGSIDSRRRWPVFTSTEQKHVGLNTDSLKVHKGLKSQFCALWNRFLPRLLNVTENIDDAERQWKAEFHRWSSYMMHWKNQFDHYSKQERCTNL
# UniProt R4P353, 1-724 S562A limits assumed: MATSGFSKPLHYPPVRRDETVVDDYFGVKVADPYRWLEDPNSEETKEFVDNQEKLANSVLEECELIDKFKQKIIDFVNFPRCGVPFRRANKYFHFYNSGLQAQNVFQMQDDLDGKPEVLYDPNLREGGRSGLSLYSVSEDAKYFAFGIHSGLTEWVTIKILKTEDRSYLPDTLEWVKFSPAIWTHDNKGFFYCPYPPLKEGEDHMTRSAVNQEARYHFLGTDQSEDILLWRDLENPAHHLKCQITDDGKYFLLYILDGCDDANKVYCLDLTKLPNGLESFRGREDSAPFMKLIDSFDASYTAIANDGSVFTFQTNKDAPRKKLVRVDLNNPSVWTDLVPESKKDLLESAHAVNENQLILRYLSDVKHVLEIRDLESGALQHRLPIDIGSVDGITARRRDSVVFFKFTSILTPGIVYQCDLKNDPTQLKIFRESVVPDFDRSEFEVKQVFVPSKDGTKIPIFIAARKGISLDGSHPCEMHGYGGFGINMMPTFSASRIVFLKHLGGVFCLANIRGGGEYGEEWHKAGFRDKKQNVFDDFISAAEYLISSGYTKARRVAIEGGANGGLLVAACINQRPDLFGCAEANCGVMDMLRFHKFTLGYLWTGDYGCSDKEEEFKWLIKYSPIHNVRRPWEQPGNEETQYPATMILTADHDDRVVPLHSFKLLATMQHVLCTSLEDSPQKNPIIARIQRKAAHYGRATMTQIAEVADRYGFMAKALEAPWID
# UniProt P11229, whole entry: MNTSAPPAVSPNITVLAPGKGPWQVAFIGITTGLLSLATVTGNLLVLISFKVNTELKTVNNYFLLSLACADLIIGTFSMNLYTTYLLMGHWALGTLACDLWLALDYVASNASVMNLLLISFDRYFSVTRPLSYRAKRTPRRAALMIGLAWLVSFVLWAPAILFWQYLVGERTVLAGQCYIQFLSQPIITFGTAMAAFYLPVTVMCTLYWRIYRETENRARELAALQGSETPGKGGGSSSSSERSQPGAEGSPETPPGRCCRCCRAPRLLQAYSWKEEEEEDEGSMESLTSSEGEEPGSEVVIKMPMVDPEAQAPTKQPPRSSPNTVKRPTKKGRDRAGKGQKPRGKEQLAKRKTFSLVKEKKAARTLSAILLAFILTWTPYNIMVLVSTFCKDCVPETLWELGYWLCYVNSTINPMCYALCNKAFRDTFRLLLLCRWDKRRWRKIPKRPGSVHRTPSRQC
# UniProt P9WFX1, whole entry: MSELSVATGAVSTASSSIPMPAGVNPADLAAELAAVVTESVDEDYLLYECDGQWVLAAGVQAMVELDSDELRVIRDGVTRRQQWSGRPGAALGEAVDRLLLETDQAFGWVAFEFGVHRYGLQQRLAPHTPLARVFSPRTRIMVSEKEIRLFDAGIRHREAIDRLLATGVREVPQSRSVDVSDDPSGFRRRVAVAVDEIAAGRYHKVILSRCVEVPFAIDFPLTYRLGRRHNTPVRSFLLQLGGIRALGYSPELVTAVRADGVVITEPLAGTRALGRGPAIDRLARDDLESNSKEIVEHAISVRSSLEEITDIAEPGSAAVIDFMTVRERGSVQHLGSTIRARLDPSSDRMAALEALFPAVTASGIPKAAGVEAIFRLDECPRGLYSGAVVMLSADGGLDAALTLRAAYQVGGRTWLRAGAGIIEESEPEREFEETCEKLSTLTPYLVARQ
# UniProt F1M9V7, 1-920: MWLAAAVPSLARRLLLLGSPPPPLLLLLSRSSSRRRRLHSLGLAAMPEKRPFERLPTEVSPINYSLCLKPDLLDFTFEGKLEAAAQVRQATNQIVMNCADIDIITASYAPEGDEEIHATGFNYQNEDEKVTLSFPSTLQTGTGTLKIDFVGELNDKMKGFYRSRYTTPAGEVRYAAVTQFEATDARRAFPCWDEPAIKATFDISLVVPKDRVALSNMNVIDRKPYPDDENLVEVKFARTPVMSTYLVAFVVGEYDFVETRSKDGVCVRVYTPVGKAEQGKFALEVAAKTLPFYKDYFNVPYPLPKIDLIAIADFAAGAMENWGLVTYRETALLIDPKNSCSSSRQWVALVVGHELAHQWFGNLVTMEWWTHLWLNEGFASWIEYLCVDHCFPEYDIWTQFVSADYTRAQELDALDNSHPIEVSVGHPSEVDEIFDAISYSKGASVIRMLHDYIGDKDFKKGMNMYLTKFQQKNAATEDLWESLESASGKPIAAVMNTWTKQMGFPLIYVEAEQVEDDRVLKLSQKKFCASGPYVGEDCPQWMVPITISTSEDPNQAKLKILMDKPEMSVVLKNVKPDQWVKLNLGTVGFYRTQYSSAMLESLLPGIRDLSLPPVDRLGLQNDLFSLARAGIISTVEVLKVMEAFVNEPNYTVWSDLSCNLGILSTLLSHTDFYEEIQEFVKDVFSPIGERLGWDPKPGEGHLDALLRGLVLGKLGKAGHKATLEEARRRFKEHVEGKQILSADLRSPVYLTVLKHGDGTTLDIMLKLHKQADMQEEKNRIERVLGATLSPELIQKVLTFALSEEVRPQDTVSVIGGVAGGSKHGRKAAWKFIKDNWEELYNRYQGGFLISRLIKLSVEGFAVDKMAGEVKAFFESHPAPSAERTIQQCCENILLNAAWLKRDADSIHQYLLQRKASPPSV
# UniProt P02550, whole entry: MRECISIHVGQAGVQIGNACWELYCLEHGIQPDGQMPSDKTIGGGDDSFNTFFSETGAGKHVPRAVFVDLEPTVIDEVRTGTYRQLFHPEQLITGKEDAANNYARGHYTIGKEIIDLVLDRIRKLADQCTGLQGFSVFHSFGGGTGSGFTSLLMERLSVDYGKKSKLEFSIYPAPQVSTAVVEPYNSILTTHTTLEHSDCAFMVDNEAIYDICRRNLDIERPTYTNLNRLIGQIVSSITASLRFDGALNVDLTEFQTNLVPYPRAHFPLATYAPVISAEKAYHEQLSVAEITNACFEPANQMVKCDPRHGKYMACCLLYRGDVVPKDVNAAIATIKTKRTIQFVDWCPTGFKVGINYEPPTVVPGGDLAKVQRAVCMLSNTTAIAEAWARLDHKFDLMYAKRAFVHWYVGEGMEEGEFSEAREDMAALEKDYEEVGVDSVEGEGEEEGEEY
# UniProt P02554, whole entry: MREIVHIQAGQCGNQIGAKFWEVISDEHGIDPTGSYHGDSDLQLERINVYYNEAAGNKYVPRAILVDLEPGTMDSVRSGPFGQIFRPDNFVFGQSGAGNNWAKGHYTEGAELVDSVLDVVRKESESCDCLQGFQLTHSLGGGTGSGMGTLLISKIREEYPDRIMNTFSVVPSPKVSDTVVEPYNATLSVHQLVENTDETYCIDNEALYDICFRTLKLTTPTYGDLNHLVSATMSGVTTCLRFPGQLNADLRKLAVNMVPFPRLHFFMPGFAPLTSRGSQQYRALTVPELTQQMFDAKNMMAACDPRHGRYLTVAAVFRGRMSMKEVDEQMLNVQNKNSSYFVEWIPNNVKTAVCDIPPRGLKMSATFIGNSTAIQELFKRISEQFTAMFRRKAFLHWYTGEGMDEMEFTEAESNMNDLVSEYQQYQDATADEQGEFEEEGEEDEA
# Lines come from different studies, so protocols differ. ± marks the error that the study gave.
# ACHE: Acetylcholinesterase (ACHE, Homo sapiens, UniProt P22303)
# inhA: Enoyl-[acyl-carrier-protein] reductase [NADH] (inhA, Mycobacterium tuberculosis, UniProt P9WGR1)
Compound,target or system,assay,test system,setting,scale,measurement,result
c1ccc2c(c1)ccc[n+]2CCCCCCCCCC[n+]1cccc2ccccc21,ACHE,,,,relative to: BChE IC50 over AChE IC50,selectivity ratio,100
COC(=O)[C@@]1(C)C=C(C(=O)Nc2ccc(C)c(C(=O)Nc3ccc(Nc4nccc(-c5cccnc5)n4)cc3)c2)C(=O)CC1,"MAPK8 (Homo sapiens, UniProt P45983)","kinase activity, inhibitor",,"0.02032 µM, unit not given, together with: 10 mM GSH",relative to: DMSO,remaining activity,0.366
N#Cc1ccccc1Oc1ccc(Cn2cc(C3CCCC3)nn2)cc1O,inhA,,,"20 °C, EI to EI*",,isomerization rate k5,2.23 min⁻¹
C[C@H](CS)C(=O)N[C@@H](Cc1c[nH]c2ccccc12)C(=O)O,Enterobacter aerogenes,,IMP-1 producing,"25 µM, together with: meropenem",,MIC of meropenem,16 µg/mL
C=CC(=O)Nc1cc(-n2c(=O)ccc3cnc4ccc(-c5cn[nH]c5)cc4c32)ccc1C,HEL,cell growth,,72 h,,GI50,1200 nM
Cc1ccc(-c2csc(NP(=O)(O)OCC3OC(n4c[n+](Cc5ccccc5)c5c(=O)[nH]c(NC(=O)c6ccccc6)nc54)C4OC(C)(C)OC34)n2)cc1 (stereo not drawn),"EIF4E (Homo sapiens, UniProt P06730)",item: EIF4E,MCF7,,,protein level,4.23 ng/mL
NCCNCCSc1ccccc1,,,n-octanol/phosphate buffer,"pH 7.4, average of 10, 25, 50 µg/mL",,logP,-0.6
O=C(NC1CCN(c2ncnc3[nH]cnc23)CC1)c1cccc(S(=O)(=O)Nc2ccc(Cl)cc2)c1,A549-ACE2,,,0.01016 µM,,viability,100%
O=C(C1CCN(Cc2cccc3ccccc23)CC1)N1CCc2ccccc2C1,"ache (Electrophorus electricus, UniProt O42275)","enzyme activity, inhibitor, Ellman",,"64.4 µM, together with: acetylthiocholine iodide",,Vmax,0.097 absorbance units/min
CC(C)[C@H](NC(=O)[C@@H]1CCCN1C(=O)[C@H](C)NC(=O)[C@H](CO)NC(=O)[C@H](C)NC(=O)[C@H](CC(N)=O)NC(=O)[C@H](CCC(=O)O)NC(=O)[C@@H](NC(=O)[C@H](CC(=O)O)NC(=O)[C@H](CCCCN)NC(=O)[C@H](C)NC(=O)[C@H](CCC(N)=O)NC(=O)[C@H](Cc1ccccc1)NC(=O)[C@H](C)NC(=O)[C@H](Cc1c[nH]c2ccccc12)NC(=O)[C@H](C)NC(=O)[C@@H](NC(=O)CN)C(C)C)C(C)C)C(=O)O,"Peptide cyclase 1 (Gypsophila vaccaria, UniProt R4P353, S562A)","binding, isothermal titration calorimetry",,"pH 8.0, 25 °C",,-TΔS,3.25 kcal/mol
Oc1cc(Cn2cc(C3CC3)nn2)ccc1Oc1ccccc1Cl,inhA,"conformational change, second-harmonic generation",,"10 µM, 30 min, His-tagged protein",,SHG intensity increase,19.7 ± 0.6%
COc1ccc(CN[C@@H]2CO[C@H](C(c3ccccc3)c3ccccc3)C[C@H]2O)cc1,"CHRM1 (Homo sapiens, UniProt P11229)",radioligand binding,,"10 µM, together with: [3H]QNB",,inhibition,-1.7%
O=C(O)c1ccc(-c2ccc([N+](=O)[O-])cc2Cl)o1,"mbtI (Mycobacterium tuberculosis, UniProt P9WFX1)",enzyme activity,,"100 µM, pH 7.5",,remaining activity,11.3 ± 4.2%
CSCC[C@H](NC(=O)[C@H](Cc1ccccc1)NC(=O)CNC(=O)CNC(=O)[C@@H](N)Cc1ccc(O)cc1)C(=O)O,"Puromycin-sensitive aminopeptidase (Rattus norvegicus, UniProt F1M9V7)",substrate,,rat enzyme,,Km,80 µM
CCN(CC)Cc1cc(N)ccc1O,ACHE,"enzyme activity, inhibitor",,1 mM,,inhibition,60%
"[11CH3]Nc1ccc(C(=O)C2CCN(C3Cc4ccccc4CC3O)CC2)cc1 (single isomer, unassigned)",,,"Sprague-Dawley rat, heart","intravenous, dose not given, 5 min",,radioactivity uptake,0.49 %ID/g
N#Cc1ccccc1Oc1ccc(Cn2cc(C3CC3)nn2)cc1O,inhA,"enzyme inhibition, inhibitor, progress curve analysis",,20 °C,,residence time,194 ± 3 min
CC[C@H](C)[C@@H]([C@@H](CC(=O)N1CCC[C@H]1[C@H](OC)[C@@H](C)C(=O)NCCc1ccccc1)OC)N(C)C(=O)[C@@H](NC(=O)[C@H](C(C)C)N(C)C)C(C)C [isotope labelled],"Tubulin alpha-1A/beta chain (Sus scrofa, UniProt P02550+P02554)",microtubule polymerization,,"3 µM, 30 min",,inhibition,78.6%

# Some of these lines once more:
Compound,target or system,assay,test system,setting,scale,measurement,result
CCN(CC)Cc1cc(N)ccc1O,ACHE,"enzyme activity, inhibitor",,1 mM,,inhibition,60%
